Results pooled from the literature.
Lines come from different studies, so protocols differ. ± gives the spread as reported.

Compound = CCc1cc(/C(C)=N/OCc2ccc(C3CCCCC3)c(C(F)(F)F)c2)ccc1CN1CC(C(=O)O)C1; system = healthy human, plasma; conditions = oral, 4 mg, geometric mean, added: fluconazole steady state; Vz/F = 162 L
Compound = CCOc1c([C@H](C)n2nc(C)c3c(N)ncnc32)cc(Cl)c(F)c1[C@@H]1CNC(=O)C1; system = healthy fasted humans, plasma; conditions = oral, 10 mg; Vz/F = 54.7 ± 13.9 L
Compound = CCOc1ccc(Cc2cc([C@]34OC[C@](CO)(O3)[C@@H](O)[C@H](O)[C@H]4O)ccc2Cl)cc1; system = human, type 2 diabetes, severe renal impairment, plasma; conditions = oral, 15 mg; Vz/F = 269 L
Compound = O=C(c1cccnc1-c1ccncc1)N1CCC(O)(Cc2ccccc2)CC1; system = healthy human, plasma; conditions = oral, 100 mg once daily, day 1, arithmetic mean; Vz/F = 1320 L
Compound = C=CC(=O)N1CCC([C@@H]2CCNc3c(C(N)=O)c(-c4ccc(Oc5ccccc5)cc4)nn32)CC1; system = human; conditions = oral, 480 mg single dose, mean; Vz/F = 2840 L
Compound = CC(C)NC[C@@H](C(=O)N1CCN(c2ncnc3c2[C@H](C)C[C@H]3O)CC1)c1ccc(Cl)cc1; system = human, Mild hepatic function (Child-Pugh), plasma; conditions = oral, 100 mg single dose, geometric mean; Vz/F = 20200 L
Compound = CNC(=O)c1c(C)oc2cc(Oc3ncnc4cc(OC)c(OC)cc34)ccc12; system = human, plasma; conditions = oral, 5 mg, fed, high-fat meal; Vz/F = 43.5 L
Compound = CC[C@H](C)[C@@H]1NC(=O)[C@H](CCCNC(=N)N)NC(=O)[C@H](CC(=O)O)NC(=O)[C@H](CC(C)C)NC(=O)[C@H](CCCCN)NC(=O)[C@H](CC(C)C)NC(=O)CNC(=O)[C@H](Cc2ccccc2)NC(=O)[C@@H](NC(=O)CNC(=O)[C@H](CCCCN)NC(=O)[C@H](CO)NC(=O)[C@H](CC(C)C)NC(=O)CNC(=O)[C@H](CCCCN)NC(=O)[C@H](CCCCN)NC(=O)[C@H](CC(N)=O)NC(=O)[C@H](C)NC(=O)CNC(=O)[C@H](CCCCN)NC(=O)[C@H](Cc2ccc(O)cc2)NC(=O)[C@H](CCCCN)NC(=O)[C@H](CCCNC(=N)N)NC(=O)[C@H](C)NC(=O)[C@H](CC(N)=O)NC(=O)[C@@H]2CCCN2C(=O)[C@H](Cc2c[nH]cn2)NC(=O)[C@H](CCC(=O)O)NC(=O)[C@H](CCC(N)=O)NC(=O)CNC(=O)[C@@H]2CCCN2)CSSC[C@@H](C(=O)O)NC(=O)CNC(=O)[C@H](CC(C)C)NC(=O)CNC(=O)[C@H](CO)NC(=O)[C@H](CCSC)NC(=O)[C@H](CO)NC(=O)CNC1=O; assay = ECLA; system = human, plasma; conditions = subcutaneous, 15 µg/kg once daily, day 1; Vz/F = 2.88 L/kg
Compound = CCn1c(=O)c2c(nc(/C=C/c3ccc(OC)c(OC)c3)n2C)n(CC)c1=O; system = healthy human, plasma; conditions = oral, 40 mg single dose, arithmetic mean, added: rifampin 600 mg/day steady state; Vz/F = 925 L
Compound = C=CC(=O)N1CCC(CNc2ncnc(N)c2-c2ccc(Oc3ccccc3)cc2)CC1; system = human, plasma; conditions = oral, 50 mg single dose, geometric mean; Vz/F = 455 L
Compound = COc1cc2nccc(Oc3ccc(NC(=O)NC4CC4)c(Cl)c3)c2cc1C(N)=O; system = human, plasma; conditions = oral, 5 mg, arithmetic mean, added: ketoconazole 400 mg/day; Vz/F = 313 L
Compound = CCCS(=O)(=O)N[C@H]1C[C@@H](N(C)c2ncnc3[nH]ccc23)C1; system = human, normal hepatic function; conditions = oral, 200 mg, single dose, geometric mean; Vz/F = 211 L
